# Published values from different studies.
# A part holds a random share of what one study measured.
# Chain of UniProt P41240 (whole entry, looked up): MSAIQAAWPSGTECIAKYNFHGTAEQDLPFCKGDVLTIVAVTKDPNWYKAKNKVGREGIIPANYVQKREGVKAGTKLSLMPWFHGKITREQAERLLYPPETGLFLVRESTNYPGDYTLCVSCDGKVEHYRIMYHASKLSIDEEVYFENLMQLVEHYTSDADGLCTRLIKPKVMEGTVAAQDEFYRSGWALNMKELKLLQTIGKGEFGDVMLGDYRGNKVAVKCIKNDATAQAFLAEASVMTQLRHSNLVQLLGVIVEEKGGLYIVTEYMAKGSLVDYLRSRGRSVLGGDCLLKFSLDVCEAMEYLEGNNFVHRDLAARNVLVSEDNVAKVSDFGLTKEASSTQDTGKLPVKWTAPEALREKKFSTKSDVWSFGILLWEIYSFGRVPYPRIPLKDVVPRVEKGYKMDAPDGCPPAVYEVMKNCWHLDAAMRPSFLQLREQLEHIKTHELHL
# Chain of UniProt O15530 (whole entry, looked up): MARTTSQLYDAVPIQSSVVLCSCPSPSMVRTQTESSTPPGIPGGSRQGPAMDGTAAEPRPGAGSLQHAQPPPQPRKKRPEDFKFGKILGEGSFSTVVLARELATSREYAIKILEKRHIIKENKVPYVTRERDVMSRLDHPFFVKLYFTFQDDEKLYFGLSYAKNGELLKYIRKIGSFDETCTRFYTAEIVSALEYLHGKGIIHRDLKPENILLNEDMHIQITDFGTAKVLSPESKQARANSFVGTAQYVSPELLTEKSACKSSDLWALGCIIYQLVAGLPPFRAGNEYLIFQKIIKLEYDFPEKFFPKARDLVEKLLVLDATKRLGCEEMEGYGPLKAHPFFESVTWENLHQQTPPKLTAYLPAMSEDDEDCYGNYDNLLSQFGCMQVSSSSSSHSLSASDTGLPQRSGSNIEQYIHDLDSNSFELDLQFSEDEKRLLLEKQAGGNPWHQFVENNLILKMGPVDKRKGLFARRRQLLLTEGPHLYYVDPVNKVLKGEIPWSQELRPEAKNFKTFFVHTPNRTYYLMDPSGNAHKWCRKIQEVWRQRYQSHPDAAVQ
# Chain of UniProt Q13233 (whole entry, looked up): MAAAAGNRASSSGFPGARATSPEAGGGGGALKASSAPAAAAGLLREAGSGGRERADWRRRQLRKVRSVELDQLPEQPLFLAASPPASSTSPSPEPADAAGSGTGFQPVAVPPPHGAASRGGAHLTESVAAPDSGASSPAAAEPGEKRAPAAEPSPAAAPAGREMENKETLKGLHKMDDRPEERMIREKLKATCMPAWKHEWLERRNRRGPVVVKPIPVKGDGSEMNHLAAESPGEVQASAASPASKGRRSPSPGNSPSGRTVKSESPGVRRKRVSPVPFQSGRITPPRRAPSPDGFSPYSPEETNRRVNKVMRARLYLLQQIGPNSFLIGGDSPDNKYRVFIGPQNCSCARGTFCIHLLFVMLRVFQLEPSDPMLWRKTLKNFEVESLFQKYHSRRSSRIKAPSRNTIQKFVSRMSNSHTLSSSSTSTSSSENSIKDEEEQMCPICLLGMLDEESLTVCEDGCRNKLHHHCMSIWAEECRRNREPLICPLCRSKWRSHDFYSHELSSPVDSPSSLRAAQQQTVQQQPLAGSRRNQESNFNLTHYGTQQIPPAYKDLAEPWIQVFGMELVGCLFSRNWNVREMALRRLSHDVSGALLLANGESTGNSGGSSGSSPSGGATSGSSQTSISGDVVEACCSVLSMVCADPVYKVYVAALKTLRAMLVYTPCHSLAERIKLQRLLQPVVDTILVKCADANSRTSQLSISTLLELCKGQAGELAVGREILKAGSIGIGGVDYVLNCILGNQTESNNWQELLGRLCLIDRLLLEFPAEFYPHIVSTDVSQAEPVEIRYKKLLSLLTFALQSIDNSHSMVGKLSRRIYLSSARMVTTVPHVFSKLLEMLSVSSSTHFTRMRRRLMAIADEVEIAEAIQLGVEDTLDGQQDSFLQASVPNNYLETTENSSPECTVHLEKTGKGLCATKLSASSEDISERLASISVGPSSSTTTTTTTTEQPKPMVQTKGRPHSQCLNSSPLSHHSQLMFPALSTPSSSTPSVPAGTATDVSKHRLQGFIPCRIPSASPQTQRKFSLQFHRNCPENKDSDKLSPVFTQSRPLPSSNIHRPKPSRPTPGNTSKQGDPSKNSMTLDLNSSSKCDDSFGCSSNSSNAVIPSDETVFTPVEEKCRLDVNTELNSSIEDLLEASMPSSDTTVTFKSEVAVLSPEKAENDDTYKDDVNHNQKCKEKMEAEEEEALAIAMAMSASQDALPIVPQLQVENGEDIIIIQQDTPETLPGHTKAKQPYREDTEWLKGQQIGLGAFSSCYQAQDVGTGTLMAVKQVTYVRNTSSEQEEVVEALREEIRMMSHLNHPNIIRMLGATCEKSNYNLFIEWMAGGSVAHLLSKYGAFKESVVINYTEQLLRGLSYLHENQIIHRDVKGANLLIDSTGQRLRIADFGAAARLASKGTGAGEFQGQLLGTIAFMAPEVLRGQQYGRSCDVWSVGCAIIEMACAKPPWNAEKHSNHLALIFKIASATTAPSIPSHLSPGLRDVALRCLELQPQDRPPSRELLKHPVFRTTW
# Chain of UniProt P53779 (whole entry, looked up): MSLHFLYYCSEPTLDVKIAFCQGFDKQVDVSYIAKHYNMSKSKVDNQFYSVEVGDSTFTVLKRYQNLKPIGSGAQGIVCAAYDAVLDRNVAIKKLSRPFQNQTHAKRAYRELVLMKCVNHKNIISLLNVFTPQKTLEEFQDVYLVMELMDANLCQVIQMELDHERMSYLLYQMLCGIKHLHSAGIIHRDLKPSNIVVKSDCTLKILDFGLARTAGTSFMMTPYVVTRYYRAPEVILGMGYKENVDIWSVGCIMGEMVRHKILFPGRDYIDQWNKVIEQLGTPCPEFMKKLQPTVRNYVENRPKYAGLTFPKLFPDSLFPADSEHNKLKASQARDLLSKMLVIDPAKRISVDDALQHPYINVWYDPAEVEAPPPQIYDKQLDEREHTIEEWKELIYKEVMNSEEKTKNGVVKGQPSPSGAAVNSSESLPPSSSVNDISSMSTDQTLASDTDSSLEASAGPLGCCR

# Block 1 — read-out: cell-free assay; technique: competition with immobilised ligand; tested at: 1 µM
# Compound: CNCc1ccccc1-c1csc([C@@H](C)Nc2nc(C)nc3cc(OC)c(OC)cc23)c1
target,remaining binding
"PIK3CA (Homo sapiens, UniProt P42336, E545A)",91%
"CSK (Homo sapiens, UniProt P41240)",100%
"Mast/stem cell growth factor receptor Kit, autoinhibited (KIT, Homo sapiens, UniProt P10721)",81%
"DAPK2 (Homo sapiens, UniProt Q9UIK4)",100%
"MAP3K1 (Homo sapiens, UniProt Q13233)",72%
"Tyrosine-protein kinase ABL1, phosphorylated (ABL1, Homo sapiens, UniProt P00519, F317L)",100%
"STK33 (Homo sapiens, UniProt Q9BYT3)",45%
"STK32C (Homo sapiens, UniProt Q86UX6)",60%
"ERBB2 (Homo sapiens, UniProt P04626)",84%
"RET (Homo sapiens, UniProt P07949, V804L)",73%
"MAPK10 (Homo sapiens, UniProt P53779)",71%
"PDPK1 (Homo sapiens, UniProt O15530)",92%
"SRMS (Homo sapiens, UniProt Q9H3Y6)",92%
"MAP4K5 (Homo sapiens, UniProt Q9Y4K4)",100%
"MARK3 (Homo sapiens, UniProt P27448)",89%
"CDK16 (Homo sapiens, UniProt Q00536)",87%
"STK17A (Homo sapiens, UniProt Q9UEE5)",100%

# Block 2 — read-out: enzyme activity; mode: inhibitor; tested at: 0.5 µM; baseline: control
# Target: Calcium/calmodulin-dependent protein kinase type II subunit alpha (CAMK2A, Homo sapiens, UniProt Q9UQM7)
# Chain of UniProt Q9UQM7 (whole entry, looked up): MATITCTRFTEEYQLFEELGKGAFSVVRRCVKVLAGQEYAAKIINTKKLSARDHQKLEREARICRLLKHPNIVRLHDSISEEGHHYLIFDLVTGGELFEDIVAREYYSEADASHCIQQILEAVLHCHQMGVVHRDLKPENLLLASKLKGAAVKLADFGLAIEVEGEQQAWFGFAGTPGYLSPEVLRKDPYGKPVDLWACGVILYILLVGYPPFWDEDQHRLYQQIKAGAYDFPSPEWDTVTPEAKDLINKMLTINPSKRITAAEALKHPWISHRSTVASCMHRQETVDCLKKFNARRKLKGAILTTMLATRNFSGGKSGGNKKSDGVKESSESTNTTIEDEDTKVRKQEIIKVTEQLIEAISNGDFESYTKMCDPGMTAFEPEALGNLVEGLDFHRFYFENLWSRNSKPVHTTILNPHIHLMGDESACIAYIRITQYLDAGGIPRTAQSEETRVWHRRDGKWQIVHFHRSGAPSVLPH
SMILES,remaining activity [%]
Cn1nc2c3c(cccc31)C(=O)c1ccccc1-2,106
Cc1nc2cc3nc(-c4cccs4)cnc3cc2n1C,105
c1ccc(-c2[nH]ncc2-c2ccnc3ccccc23)nc1,102
Ic1cccc(CSc2nnc(-c3ccncc3)o2)c1,92.3
N#C/C(=C\c1ccc(O)c(O)c1)C(=O)NCc1ccccc1,100
COc1cc2ncnc(Nc3cccc(Cl)c3)c2cc1OC,98.2
CCN(CC)C(=O)c1ccc(Nc2nc(OCC3CCCCC3)c3[nH]cnc3n2)cc1,105
CN([C@@H](Cc1ccc(OS(=O)(=O)c2cccc3cnccc23)cc1)C(=O)N1CCN(c2ccccc2)CC1)S(=O)(=O)c1cccc2cnccc12,107
O=C(NC(NC(=S)Nc1ccc(F)c([N+](=O)[O-])c1)C(Cl)(Cl)Cl)C(c1ccccc1)c1ccccc1 (stereo not shown),96
Cc1cc2ncc(-c3ccccc3)nc2cc1C,98.4
CCN(CC)CCNC(=O)c1c(C)[nH]c(/C=C2\C(=O)Nc3ccc(F)cc32)c1C,14.5
N#Cc1c(NC(=O)c2cccc3ccccc23)sc2c1CCCC2,104
O=c1cc(-c2cccc3c2Sc2ccccc2S3)oc(N2CCOCC2)c1,100
O=C1c2ccccc2-c2n[nH]c3cccc1c23,82.6

# Block 3 — cell line: mouse MPNST tumor cells; technique: high-content nuclear imaging; measured: cell number; tested at: 10 µM; time: 12 h; notes: mean of 2 replicates; baseline: plate mean; direction: higher = more cells
Compound,nuclei count [z-score]
Cc1cc(C=C2SC(=O)N(c3ccccc3)C2=O)c(C)n1-c1cccnc1,-0.484
Nc1ccc(-c2nc3ccc(-c4nc5ccc(N)cc5[nH]4)cc3[nH]2)cc1,4.78
O=C1c2ccccc2C(=O)C1c1ccccc1,-0.172
CN(CCc1ccc(Cl)c(Cl)c1)CC(O)COc1ccc(NS(C)(=O)=O)cc1 (stereo not shown),1.01
CC1CS(=O)(=O)CCN1/N=C/c1ccc([N+](=O)[O-])o1 (stereo not shown),0.827

# Block 4 — cell line: Huh-7; tested at: 10 µM; time: 24 h
Structure (SMILES),viability
CCN(CC)CCOC(=O)[C@H](Cc1cccc2ccccc12)C[C@H]1CCCO1,97%
NC[C@@H]1O[C@H](O[C@H]2[C@@H](O)[C@H](O[C@@H]3[C@@H](O)[C@H](N)C[C@H](N)[C@H]3O[C@H]3O[C@H](CO)[C@@H](O)[C@H](O)[C@H]3N)O[C@@H]2CO)[C@H](N)[C@@H](O)[C@@H]1O,102%
[H]/N=C(/N)N[C@H]1[C@H](O)[C@@H](O)[C@H](O[C@@H]2O[C@@H](C)[C@](O)(C=O)[C@H]2O[C@@H]2O[C@@H](CO)[C@H](O)[C@@H](O)[C@@H]2NC)[C@@H](N/C(N)=N\[H])[C@@H]1O,96.9%
CCCNC(C)C(=O)Nc1ccccc1C (stereo not shown),104%
NS(=O)(=O)c1cc2c(cc1C(F)(F)F)NC(Cc1ccccc1)NS2(=O)=O (stereo not shown),103%
NCCc1ccc(O)c(O)c1,99.2%
CCOc1ccc2ccccc2c1C(=O)N[C@@H]1C(=O)N2[C@@H]1SC(C)(C)[C@@H]2C(=O)O,98%
CC(=O)OCC(=O)[C@H]1CC[C@H]2[C@@H]3CCC4=CC(=O)CC[C@]4(C)[C@H]3CC[C@]12C,83.6%
CCN(CC)C(=S)SSC(=S)N(CC)CC,96.9%
CN(C(=O)C(Cl)Cl)c1ccc(OC(=O)c2ccco2)cc1,85.3%
NCC[C@H](O)C(=O)N[C@@H]1C[C@H](N)[C@@H](O[C@H]2O[C@H](CN)[C@@H](O)[C@H](O)[C@H]2O)[C@H](O)[C@H]1O[C@H]1O[C@H](CO)[C@@H](O)[C@H](N)[C@H]1O,96.8%
OC(CCN1CCCCC1)(c1ccccc1)C1C[C@@H]2C=C[C@H]1C2 (stereo partly shown),96.8%
CN(C)CCc1c[nH]c2ccc(Cn3cncn3)cc12,92.3%

# A few entries again (block 3):
Compound,nuclei count [z-score]
Cc1cc(C=C2SC(=O)N(c3ccccc3)C2=O)c(C)n1-c1cccnc1,-0.484
Nc1ccc(-c2nc3ccc(-c4nc5ccc(N)cc5[nH]4)cc3[nH]2)cc1,4.78
O=C1c2ccccc2C(=O)C1c1ccccc1,-0.172
CN(CCc1ccc(Cl)c(Cl)c1)CC(O)COc1ccc(NS(C)(=O)=O)cc1 (stereo not shown),1.01
CC1CS(=O)(=O)CCN1/N=C/c1ccc([N+](=O)[O-])o1 (stereo not shown),0.827
